Results pooled from the literature.
Every numbered part comes from another study and shows a few of its results, in no order. Changes are numbered by the printed parent chain.

Set 1 — technique: RNA Bind-n-Seq; form: RNA; sample: in vitro; concentration: 100 nM; relative to: input RNA pool; direction: higher = stronger binding
Target: RING finger protein unkempt homolog, zinc fingers 1-6, SBP tag (UNK, Homo sapiens, UniProt Q9C0B0, residues 30-357)
Sequence of UniProt Q9C0B0 (30-357, looked up): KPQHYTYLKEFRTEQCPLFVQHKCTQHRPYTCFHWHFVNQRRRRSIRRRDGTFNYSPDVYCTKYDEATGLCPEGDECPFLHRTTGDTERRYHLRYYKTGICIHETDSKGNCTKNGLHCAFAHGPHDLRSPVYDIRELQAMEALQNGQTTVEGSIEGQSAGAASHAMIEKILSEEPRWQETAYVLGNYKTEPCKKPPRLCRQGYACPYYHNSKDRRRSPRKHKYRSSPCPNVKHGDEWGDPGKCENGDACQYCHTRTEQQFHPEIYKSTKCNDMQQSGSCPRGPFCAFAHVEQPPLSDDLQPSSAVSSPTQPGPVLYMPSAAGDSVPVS
Setting: RNA with constant flanks, vertebrate orthologous sites, ends assumed
Shared flanks, not repeated: GGGAGUUCUACAGUCCGACGAUC … CAACAGAGGAUUGAGCAUCA
`ACGCUUUGACGUGAAGAUAACCAUCUCCUUAUGACCCCCGACCGCAAGUGCCCCCGCCCCGUCUCCCGCCGUGCCCCUUCAAACACAGUUCUAGAAAUUAAAAGUAAAAAAAAAAGAAAA` gave a bound/input enrichment of 0.883 ratio.
For `UUUUUUUUUUUUUGCACAUGACAGUGUUUGUACUGAUCUGCUGAGGAGGAGGAGGGGUACCAAACAGUGGGCCUGGAUUCCUAACCUCCAGUGUCUCACCACCCACCUGGCUUCUUUGUC`, the bound/input enrichment was 0.357 ratio.
`UACAGGGAAAGAGCUCACAAACUGAAUGGAAAACUAUUAAAAGAGUUUCUAGUAGUAAGGAAAGAUUAGGACAACUUUACAAAUAAACAAUUACAAAUCAAAGAAAUAGGACAGUAAAAC` gave a bound/input enrichment of 1.24 ratio.
The bound/input enrichment of `UUCAGGCACAACUGACUGGUCCACAGCAUUCCUUACAUAGUUAUCUUCCAAAUGCAAGUGUAGUUAAUUUUCAGGAAACAACUAGGCAGCCAUCUUUAUCCUGUAGCCCAAUAGGAGAUU` is reported as 2.09 ratio.
`UUACUGUUAAGCACUGUGUUCCAGACCGUGUCUGAUUUUAGUGUAACCUAGGAGAUUUUAUAGUUUUAUUUUAAUGAAAUCCUGCUUGACGCAGAGCAGCGGGGAGAGCAGUGUCCUCCA` has a bound/input enrichment of 2.19 ratio.
`AAUAUUGAAAAGUAUUAAAGAAACAUUUUUGUCUUCCUUUACCUGUUGUCCCCUAAUACCUAGUCUACUUUUUAAAUUUUCAGACUUCAUUACUCUUUGAAUUGAUAAUUCCAGUUUUCA` has a bound/input enrichment of 0.803 ratio.
The bound/input enrichment of `GAGUGCUUAAGCCGCCAACAGUUAGAAGAUGCUAUUUAUUUGUGUCUGUAAGUUUGUACAUAGUAAUAAUGCCAACCUUGUUGCUGAAUUUUUUAUUUGUGGGGGAUGAGUUUGAAUUUU` is reported as 1.48 ratio.
The bound/input enrichment of `AGAAAAUUUUAGCCAGGAAUCUGAAGGUAGAAAUACAGGACCGUGGUUAUCUUCCUCCCUUAGAAAUAGAUGCACACCUUUGUUCUCUAGAAGGAGACGAGAGGGAAGAGAUGAAUCUUC` is reported as 1.09 ratio.
The bound/input enrichment of `UUGUUUUGUACAGGGCAUUCUCUGUACUAGGUUGUUGUGGUUAUAAAGCAAUUAGCAAAACAGCUUACAUUUGUAUUUAUUUUCUAUUCCAUACCUCUCUGUCCCAUGUUUUUUCUCUUC` is reported as 0.829 ratio.
With `GAUUUGGACCCAGGAGCCAAACCAGGGAGCUAGCAAAAGUAAAGCAGGCGUGUAAAAGGAGAGUCCUGUGCAGCUGCCCAACAACAGUGCCACCACUAGCAGCUGUGUUAAAGUAUUCGU` the bound/input enrichment was 0.463 ratio.
The bound/input enrichment of `GAAGACUUUGUGUGCCAUAUUACCCCAAAAAACAUAAAGCUACUUUUUUACUUGCAUAUUUUUCAAAGUACCUGAAAAAUGGUUUUUCUCCUUUCUAAUGGUCAAAAGAAGGUACAUUUC` is reported as 0.522 ratio.

Set 2 — target: CCNE1, cyclin fold, Cln2 fusion (human); technique: yeast growth competition, sequencing; sample: yeast; setting: strong parent motif; relative to: not given; direction: higher = stronger binding
Starting sequence: INSM1 docking peptide (human); PKAIRKLHFEDEV; partner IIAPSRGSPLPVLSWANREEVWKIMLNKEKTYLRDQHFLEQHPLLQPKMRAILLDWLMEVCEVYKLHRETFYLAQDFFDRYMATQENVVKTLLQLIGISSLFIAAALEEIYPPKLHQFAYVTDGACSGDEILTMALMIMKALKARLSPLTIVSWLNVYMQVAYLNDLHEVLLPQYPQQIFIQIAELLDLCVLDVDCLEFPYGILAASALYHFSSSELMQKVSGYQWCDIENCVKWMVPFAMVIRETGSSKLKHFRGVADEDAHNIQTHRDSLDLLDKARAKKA
`PKACRKLHFEDEV [I4C]` — result for “normalised enrichment score”: 5.88.
For `PKAIRKLHFEEEV [D11E]`, “normalised enrichment score” read 4.64.
`PKAIRKIHFEDEV [L7I]`: “normalised enrichment score” 1.35.
For `PKAIRDLHFEDEV [K6D]`, “normalised enrichment score” read 0.0386.
Under “normalised enrichment score”, `PKAIAKLHFEDEV [R5A]` is recorded as 0.0348.
For `PKAIRKAHFEDEV [L7A]`, “normalised enrichment score” read -0.0889.
`PKAIRKDHFEDEV [L7D]`: “normalised enrichment score” -0.272.
Under “normalised enrichment score”, `PKAILKLHFEDEV [R5L]` is recorded as 0.466.
For `PKAQRKLHFEDEV [I4Q]`, “normalised enrichment score” read 2.48.
Under “normalised enrichment score”, `PKATRKLHFEDEV [I4T]` is recorded as 1.78.
`PKAIRHLHFEDEV [K6H]` — result for “normalised enrichment score”: 2.03.
`PKAIRKLHFEMEV [D11M]` — result for “normalised enrichment score”: 3.27.
`PKAIRNLHFEDEV [K6N]`: “normalised enrichment score” 1.24.
Under “normalised enrichment score”, `PKAIRKMHFEDEV [L7M]` is recorded as 0.324.
`PKAIRKPHFEDEV [L7P]` — result for “normalised enrichment score”: 0.274.
`PKAFRKLHFEDEV [I4F]`: “normalised enrichment score” 3.6.
Under “normalised enrichment score”, `PKYIRKLHFEDEV [A3Y]` is recorded as 3.53.
`PKAIRKQHFEDEV [L7Q]`: “normalised enrichment score” -0.125.
`PKKIRKLHFEDEV [A3K]` — result for “normalised enrichment score”: 0.699.
For `PKAIRELHFEDEV [K6E]`, “normalised enrichment score” read 1.6.
Under “normalised enrichment score”, `PKAHRKLHFEDEV [I4H]` is recorded as 1.65.
Under “normalised enrichment score”, `PKAIRKLHFEDQV [E12Q]` is recorded as 3.21.
Under “normalised enrichment score”, `PKAIRKLHCEDEV [F9C]` is recorded as -0.189.
For `PKAIRKLHLEDEV [F9L]`, “normalised enrichment score” read 0.259.
Under “normalised enrichment score”, `PKAIRKLGFEDEV [H8G]` is recorded as 1.61.

Set 3 — technique: aptamer microarray, sandwich; form: DNA with 2'F-ANA; sample: in vitro; concentration: 200 nM; together with: Cy3 exosite-II aptamer, 400 nM; direction: higher = stronger binding; sequence: GGTTGGTGTGGTTGG
Target: Prothrombin, mature alpha-thrombin (F2, Homo sapiens, UniProt P00734)
Setting: whole 15-mer aptamer, many near background
`2'F-ANA at 1 2 3 4 7 8 9 10 11 12 13` — result for “mean fluorescence intensity”: 76.5 a.u.
For `2'F-ANA at 4 6 8 11 12 14 15`, “mean fluorescence intensity” read 97.7 a.u.
`2'F-ANA at 1 2 3 8 12 14` — result for “mean fluorescence intensity”: 108 a.u.
For `2'F-ANA at 2 4 6 7 8 11 12 14`, “mean fluorescence intensity” read 127 a.u.
`2'F-ANA at 2 3 4 5 6 8 10 11 12 14` — result for “mean fluorescence intensity”: 52.9 a.u.
For `2'F-ANA at 2 4 5 7 10 11`, “mean fluorescence intensity” read 46 a.u.
For `2'F-ANA at 1 4 5 6 7 8 9 12 15`, “mean fluorescence intensity” read 112 a.u.
For `2'F-ANA at 1 3 4 6 8 11 15`, “mean fluorescence intensity” read 154 a.u.
Under “mean fluorescence intensity”, `2'F-ANA at 2 3 4 6 7 9 11` is recorded as 428 a.u.
For `2'F-ANA at 1 2 3 4 7 8 9 10 13 15`, “mean fluorescence intensity” read 54.6 a.u.
For `2'F-ANA at 2 4 5 7 8 9 10 13`, “mean fluorescence intensity” read 42.9 a.u.
For `2'F-ANA at 2 3 4 5 7 11 13 14 15`, “mean fluorescence intensity” read 50.3 a.u.
Under “mean fluorescence intensity”, `2'F-ANA at 3 4 5 8 9 10 11` is recorded as 64.7 a.u.
`2'F-ANA at 1 2 3 4 9 10 11 13 14 15`: “mean fluorescence intensity” 53.4 a.u.
`2'F-ANA at 1 3 7 9 12 13 15`: “mean fluorescence intensity” 454 a.u.
`2'F-ANA at 1 2 4 6 10 13` — result for “mean fluorescence intensity”: 54.9 a.u.
`2'F-ANA at 1 2 3 4 6 7 8 11 12 14 15`: “mean fluorescence intensity” 75.8 a.u.
`2'F-ANA at 3 5 7 9 12` — result for “mean fluorescence intensity”: 240 a.u.
`2'F-ANA at 1 2 5 6 8 9 10 11 15`: “mean fluorescence intensity” 47.3 a.u.
For `2'F-ANA at 2 3 4 6 9 11 12 13`, “mean fluorescence intensity” read 510 a.u.
For `2'F-ANA at 5 6 13 14`, “mean fluorescence intensity” read 42.1 a.u.
For `2'F-ANA at 1 3 4 6 9 13 14`, “mean fluorescence intensity” read 63.7 a.u.

Set 4 — target: UBE2M UBC core domain (UniProt P61081); technique: yeast two-hybrid; sample: yeast; setting: mostly zero background; relative to: not given; direction: higher = stronger interaction
B1: NEURL1 RING domain (UniProt O76050); chain VTPGLGQWSDECTICYEHAVDTVIYTCGHMCLCYACGLRLKKALHACCPICRRPIKDIIKT
B2: MKRN1 RING domain (UniProt Q9UHC7); chain FAVQRSKDMVCGICMEVVYEKANPSERRFGILSNCNHTYCLKCIRKWRSAKQFESKIIKSCPECRITSNFVIPSE
B3: DTX4 RING domain (UniProt Q9Y2E6); chain QKVRHPPDEDCTICMERLTAPSGYKGPQPTVKPDLVGKLSRCGHVYHIYCLVAMYNNGNKDGSLQCPTCKTIYGVKTGTQ
B4: TRIM4 RING domain (UniProt Q9C037); chain EAEDIQEELTCPICLDYFQDPVSIECGHNFCRGCLHRNWAPGGGPFPCPECRHPSAPAALRP
B5: TRIM5 RING domain (UniProt Q9C035); chain ILVNVKEEVTCPICLELLTQPLSLDCGHSFCQACLTANHKKSMLDKGESSCPVCRISYQPENIRP
B6: VPS41 RING domain (UniProt P49754); chain KGVLVDEENICESCLSPILPSDAAKPFSVVVFHCRHMFHKECLPMPSMNSAAQFCNICSAKNRGPGSAI
B7: RNF38 RING domain (UniProt Q9H0F5); chain PNNHQSEQTLCVVCMCDFESRQLLRVLPCNHEFHAKCVDKWLKANRTCPICRADASEVHRDS
B8: TRIM40 RING domain (UniProt Q6P9F5); chain LQKDNQEEGVCPICQESLKEAVSTNCGHLFCRVCLTQHVEKASASGVFCCPLCRKPCSEEVLG
B9: TRIML1 RING domain (UniProt Q8N9V2); chain LMENLREELTCFICLDYFSSPVTTECGHSFCLVCLLRSWEEHNTPLSCPECWRTLEGPHFQS
Residues (chain): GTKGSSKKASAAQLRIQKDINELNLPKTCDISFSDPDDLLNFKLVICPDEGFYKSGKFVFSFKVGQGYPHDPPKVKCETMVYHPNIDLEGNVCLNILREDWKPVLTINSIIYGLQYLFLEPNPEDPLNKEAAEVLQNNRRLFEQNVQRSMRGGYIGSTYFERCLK
Under “lacZ reporter activity”, `B1 (NEURL1 RING domain)` is recorded as 0.
`MPIRALCTICSDFFDHSRDVAAIHCGHTFHLQCLIQWFETAPSRTCPQCRIQVGKRTIIN (TRAIP RING domain (UniProt Q9BWF2))` — result for “lacZ reporter activity”: 0.
Under “lacZ reporter activity”, `B2 (MKRN1 RING domain)` is recorded as 0.
Under “lacZ reporter activity”, `B3 (DTX4 RING domain)` is recorded as 0.
`B4 (TRIM4 RING domain)` — result for “lacZ reporter activity”: 0.
`B5 (TRIM5 RING domain)` — result for “lacZ reporter activity”: 0.
`DHGAVGQEMCCPICCSEYVKGEVATELPCHHYFHKPCVSIWLQKSGTCPVCRCMFPPPL (PJA1 RING domain (UniProt Q8NG27))` — result for “lacZ reporter activity”: 0.
`GAAPGPEAAECLVCSELALLVLFSPCQHRTVCEECARRMKKCIRCQVVVSKKLRPD (MIB2 RING domain (UniProt Q96AX9))`: “lacZ reporter activity” 0.
For `B6 (VPS41 RING domain)`, “lacZ reporter activity” read 0.
`B7 (RNF38 RING domain)`: “lacZ reporter activity” 0.
Under “lacZ reporter activity”, `B8 (TRIM40 RING domain)` is recorded as 0.
`B9 (TRIML1 RING domain)` — result for “lacZ reporter activity”: 0.

Excerpt of the above (set 2):
For `PKAIRKAHFEDEV [L7A]`, “normalised enrichment score” read -0.0889.
`PKAIRKLHFEMEV [D11M]` — result for “normalised enrichment score”: 3.27.
For `PKAIRELHFEDEV [K6E]`, “normalised enrichment score” read 1.6.
Under “normalised enrichment score”, `PKAIRKLHCEDEV [F9C]` is recorded as -0.189.
